Results gathered from unrelated publications.
Parts stem from different laboratories: compare values within a part only. Substitutions count along the parent as printed.

Sample 1 — technique: RNA Bind-n-Seq; form: RNA; sample: in vitro; concentration: 365 nM; baseline: no-protein control; reading: higher = stronger binding
Target: RNA binding protein fox-1 homolog 2, RRM domain, GST-SBP tag (RBFOX2, Homo sapiens, UniProt O43251-10, residues 100-194)
Setting: natural RNA segment, single round, ends assumed
Constant ends, left off below: GGGAGUUCUACAGUCCGACGAUC … UGGAAUUCUCGGGUGCCAA
Construct (chain): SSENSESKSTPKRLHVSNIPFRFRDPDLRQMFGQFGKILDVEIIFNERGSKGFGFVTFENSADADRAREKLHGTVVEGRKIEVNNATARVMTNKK
Oligonucleotide	RBNS enrichment (R)
ACCUUUUCUAGGAGGCAUUGCAGGGUUUCAAUACACAGGACAUGUUCUAGUUACAGAAGCCUUGCUCUGCUGUCAACAAUUGGGAAAUGCUCAUUUUUUCAUGUUUUGUG	0.269
GUCCCUCAGUAUUGAACUUGGCUGCUUGUGGGAUCCAGUCCUGGAGGACAGGCAUCAAGUUCUUAGCCUCUGUAGCUCUUAGCUUUCCCAUCUUUCCCUGCAAGGCCACA	0.679
CUCUCUCUGCUCCUCACCCCCACCCCUGUACCCAGCCACCUUCCUGACUGGGAAGGACAUAAAAGGUUUAAUGUCAGGGUCAAACUACAUUGAGCCCCUGAGGACAGGGG	0.204
AUCACUCAGACAGCACUUCCACGGACAAGUCCCUGUCAAAACUGACCCAUGCUGGUGGAGAACAGACGUCAAUCAUUCCCGUCCAUCAGGUUAUUGAUAAGGUCAAGGGU	0.23
UGGAAACAGACUUCUGCCUACAUCGAGUCCUACGAAUUGGGGUUGUAUUGAUGUCACUCUGGUGCCUUAGAAGUCAGUCGUCCUUGGGAAGGUGUCUGCGAGACUGGGCC	0.809
CGGCCCUCACAUCUGAAACUGGUUGCCGAGAGCCCUGAGCCAAGGCAAGGAUUUGCCAAAAAUGUUCUGGGGGCCCAGCAAAUGCAGGAGCCGACCUGGGGCUGCACAUC	0.315
CUCUGCAUGGCACAUGGUCAAGGAAACUGUCCUUGGCUCAGACAGACCUGGGGUGGUGGGCAUCUGGCUGAACCUUGAGGAGGGAAAGCUUGCCUUCUAUUCAGUGGACA	0.814
AUUUCUUUGUCCUAGACUUUACAAAUUUUUCAAAACUGUAACUUUAUUUUAAACUUGUGUAUCACAACUUGGUUGAUAUGCCUAAAAUGAUCUACUGGCUUUUGCUUAUG	0.46
UGCUUUUGCAGUUAUUGGGGGGGGUCACAUAUUUCUGGUGUCUUUGACCUGGAAAAAUAAAGUAAUUAAAAAGAAAGAGCUUGCUUCUAAGUUGCUAGUAUCAUUGGGUG	0.878
UGGACUAUGCUGGCAAGGACUUUGUUUACGAUCAAAUUGUACUAGUGUCUGCAGGGUUUGUCAGUACUCGUCAAAGCCAAGUCCAAUUAAAAAAAAAAGUCUUUGCCCUC	0.636
UAUUACUAUUUAUUGUUAAUAUCAUGGUCAUCUGAAGUUAAGUACUGGGAUAUAUUUUUCUAAUUUCUAGUGAUCUUAGUAUGCAUAUUUUUUUCUAACCUUUCAAAAGU	0.68
GGAGAAGCGCAUCUACCGGGUGCCUGUUUUCACAGCGCCCUUCUGCCAGGCCCUGCUGGAAGAGCUGGAGCACUUCGAGCAAUCGGACAUGCCUAAGGGGAGGCCCAACA	0.469

Sample 2 — technique: RNA Bind-n-Seq; form: RNA; sample: in vitro; concentration: not given; baseline: input RNA pool; reading: higher = stronger binding
Target: RING finger protein unkempt homolog, zinc fingers 1-6, GST-SBP tag (UNK, Homo sapiens, UniProt Q9C0B0, residues 30-357)
Setting: RNA with constant flanks, human and mouse sites, ends assumed
Constant ends, left off below: GGGAGUUCUACAGUCCGACGAUC … CAACAGAGGAUUGAGCAUCA
Residues (chain): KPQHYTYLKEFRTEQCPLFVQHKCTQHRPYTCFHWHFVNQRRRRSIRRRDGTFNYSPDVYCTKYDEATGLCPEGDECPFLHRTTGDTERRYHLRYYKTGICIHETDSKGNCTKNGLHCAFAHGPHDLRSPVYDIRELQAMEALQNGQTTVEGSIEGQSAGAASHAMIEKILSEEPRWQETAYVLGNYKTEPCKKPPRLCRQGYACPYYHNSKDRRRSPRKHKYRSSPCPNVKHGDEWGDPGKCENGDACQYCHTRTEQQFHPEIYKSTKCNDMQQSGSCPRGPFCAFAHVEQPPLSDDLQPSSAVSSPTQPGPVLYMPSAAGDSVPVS
Oligonucleotide	bound/input enrichment
CAGCCGCGUAUACCACUCCUGGGGCAGGGCGGGAGAGUAUUGUCUGUCCUAGAGUUUUGCUAGCACCUUUUUAAAGUGAUCUUAGCUUGCUUCUUAUGUGGGAACUGCCUAGACUUCCUA	2.78 ratio
GAUGUAAGUCAAAGACUUGUUACAUAGAGGGAAAAUGGACUGGGAUAGAGGACAGACUGAUAGUUUCUUUCUUUCAUAUCACAUGUAUAGAGAAAUAAUUAUAUCAGAAACUCACAAACC	0.291 ratio
GUCAUGGUAUUUUUGGUCUGGAUUAAGCUCUUCAAAUUCAUCAAUUUUAAUAGGACCAUGAGCCAGCUCUCCACAACCAUGUCUCGAUGUGCCAAAGACCUCUUCGGCUUCACCAUAAUG	1.08 ratio
GUCAAGGCCAAAACACUAAGAAAACUGAUCCAACAAACAUUUAGACAAUUUGCCAACCUUAAUAGAGAAGAAAGUAUUCUGAAAUUCUUUGAGAUCCUGUCUCCAGUCUACAGAUUUGAU	5.58 ratio
ACGCAGUGUCUGCUGGGGCUGCGCACGUUCGUGGCCUUCGCCGCCAAGCUCUGGAGCUUCUUCAUUUACCUUCUGCGGAGGCAGAUCCGCACGGUAAUUCAGUACCAAACUGUUCGAUAU	0.0616 ratio
CAUGCAGCUGUCUUUGUUUUGUUCUUGGUAGCUGUUACUGCUACAUGUUUACAGUACUUUUAGUUUUAAUUUCGAAGUAAGCUUUUCUGACAGACAUUUUGCAACAACUUGACUGUUGUA	0.606 ratio
AAGAAAUUAUUAAACAAAACAAGGGGGGCAAUAAAUGUAUAUAACAUUAAUAAUGUCGCGUAGGUGUAGGUUCCUGGAUGCAUUUGGAUGUACAGACUGACUGGGGGACUGUAUUGCGAU	1.24 ratio
CUCUCCCGGAUUCACCCCGUGUCUACCAUGGUGAAGGGAAUGUACGGCAUUGAGAAUGAAGUCUUCCUCAGUCUCCCGUGCAUCCUCAAUGCUCGGGGGCUGACCAGCGUCAUCAAUCAG	0.0628 ratio
UGCUAACACUAGACAAAAAUCAACUGUAUUUGUAAAAAUUUACCUCAAACCAUUUAAUUUUAUAGUGUGAUUAAUCCCAGGGCAUUUGGUAUGAACCAAAGUGCAUUCCUUUUAUAUGUG	0.788 ratio
AAUCUUAAGCUUGCAACUGAACUCCCUGAUGCUGAACUUAGGAGGACUUUAUGGUCUUUAGUAGCUUUCCCAAAACUCAAACGGCAAGUUUUGUUGUAUGAACCUCAAGUCAACUCACCC	0.389 ratio
AAAGUUAUCUCUCUUUAGGCACGAAGAGCAAUUCAGAAAAAUAUGACUUUUAUUGAUGAAAAUAGAGUUAUGCUUAAAUAUCUCUUCCCUUUGAAUGAAAUUGUGGUAGAUUUUUAUGAC	1.44 ratio

Sample 3 — target: CCNB1, cyclin fold, Cln2 fusion (human); technique: yeast growth competition, sequencing; sample: yeast; setting: weak parent motif; baseline: not given; reading: higher = stronger binding
Starting sequence: RB1 docking peptide (human); PKPLKKLRFDIEG
Change	normalised enrichment score
P1M	0.0902
F9A	0.228
P3W	1.07
R8Q	0.19
L4Y	0.913
K5T	0.497
K5C	-0.165
D10F	0.203
K5N	1.01
L4T	0.632
D10Q	0.281
K5I	0.782
K6C	0.912
F9I	-0.125
F9R	0.289
L4N	0.617
D10L	0.0706
K5W	0.722
K6E	-0.611
K5L	0.401
L4D	1.55
L7F	1.22
L4F	1.2
I11E	0.528
L7I	0.381

Sample 4 — technique: protein-binding microarray; form: double-stranded DNA, one strand shown; sample: in vitro; concentration: 2540 nM top; setting: 60-bp whole probe; together with: salmon DNA 0.4 mg/ml; baseline: random background probes; reading: higher = stronger binding; constant ends, left off below: GCCTAGCAC … GTCTTGATTCGCTTGACGCTGCTG
Target: Interferon regulatory factor 3, full length, phosphomimetic (IRF3, Homo sapiens, UniProt Q14653, residues 1-427, S386D/S396D/S398D/S402D/T404D/S405D)
Construct (chain): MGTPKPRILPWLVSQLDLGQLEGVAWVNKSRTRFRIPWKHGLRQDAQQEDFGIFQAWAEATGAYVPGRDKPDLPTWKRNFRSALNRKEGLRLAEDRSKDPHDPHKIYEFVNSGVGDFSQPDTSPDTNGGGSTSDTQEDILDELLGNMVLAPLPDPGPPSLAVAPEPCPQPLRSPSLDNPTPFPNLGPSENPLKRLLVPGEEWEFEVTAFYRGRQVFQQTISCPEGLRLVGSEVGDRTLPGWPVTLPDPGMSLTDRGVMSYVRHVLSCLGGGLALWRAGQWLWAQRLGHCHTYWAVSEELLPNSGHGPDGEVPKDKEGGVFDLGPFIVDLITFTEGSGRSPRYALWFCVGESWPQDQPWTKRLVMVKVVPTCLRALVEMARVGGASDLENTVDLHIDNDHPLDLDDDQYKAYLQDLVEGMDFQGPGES
Oligonucleotide	fitted relative affinity
TTAGATTTCAGACTGGATTTGTGCTAG	0.635 z-score
TTAGGTCTCGGTTTTGGTTAGTGCTAG	2.4 z-score
TCATACCTCATCTTTCCCACTGTGCTA	1.11 z-score
TCAATTTTCGTTTTGTGACTGTGCTAG	3.96 z-score
GACGGTTTCGGGACAGGGGACGTGCTA	4.35 z-score
GACAGTCTCGGTTTCGGGACGTGCTAG	4.36 z-score
TAAGGACTGCTACTGCTTTAGTGCTAG	-0.761 z-score
AAGCTTCTTTTTTATTCTAAAGTGCTA	1.31 z-score
TTAGGTTTCGACTATCGGGTAGTGCTA	2.35 z-score
TTAGGTATCGGTACTGGGTTAGTGCTA	3.32 z-score
TTAGGTTTCGACCCTGGGTTAGTGCTA	1.94 z-score
TTATGTTTCCTTCTCCTTTAGTGCTAG	8.94 z-score
TTAGGACTGGACACTGGGTTTGTGCTA	-0.857 z-score
TCATGTCTTAGATTCCTACTGTGCTAG	1.03 z-score
TCAACTCTCAGAATCTCACTGTGCTAG	0.531 z-score
GAGGGACTGGGTTTCGGGACGTGCTAG	0.93 z-score
TTAGGTTTCCTATTCCTTTAGTGCTAG	7.28 z-score
GACGGTGTCGGGTTTCGGGACGTGCTA	2.24 z-score
TTAGACTTCAGTCTCGATTAGTGCTAG	0.053 z-score

Sample 5 — technique: protein-binding microarray; form: double-stranded DNA, one strand shown; sample: in vitro; concentration: not given; reading: higher = stronger binding
Target: Protein max, full length (MAX, Homo sapiens, UniProt P61244-2, residues 1-151)
Setting: k-mer, scored over probes, only values ≥0.25
Oligonucleotide	E-score
GCATGCAC	0.43
CACGCCTA	0.332
AGCATGTA	0.372
CATGGCCC	0.33
CTACATGC	0.325
TAACGTGA	0.332
GCATGGAA	0.392
ATACATGC	0.335
ATGCATGG	0.321
CGTGCTAA	0.338
CCCGTGCC	0.316
AGCGTGTG	0.386
ACCTCACG	0.281
CACGTTAA	0.314

A few entries again (sample 3):
Change	normalised enrichment score
K5L	0.401
K5C	-0.165
K5I	0.782
F9R	0.289
